Published values gathered from unrelated publications.
Numbered parts are unrelated; each lists some results of a single study. Substitutions count along the parent as printed.

Block 1
Target: Histone acetyltransferase KAT6A, winged helix 1, GST fusion (KAT6A, Homo sapiens, UniProt Q92794, residues 1-85)
Technique: protein binding microarray
Form: double-stranded DNA, one strand shown
Sample: in vitro
Tested at: not given
Notes: 8-mer, flanks averaged, mean of 2 arrays, mostly near background
Reference: not given
Reading: higher = stronger binding
Residues (chain): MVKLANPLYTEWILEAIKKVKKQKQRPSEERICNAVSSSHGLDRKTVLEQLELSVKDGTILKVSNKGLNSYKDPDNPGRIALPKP
The E-score of `GTATAGAC` is reported as -0.123.
`AGTAGCTG` gave an E-score of -0.234.
With `CGACACGC` the E-score was 0.0981.
For `AGTACATC`, the E-score was -0.043.
`CCAGTGCA` gave an E-score of -0.18.
For `ATCATCAG`, the E-score was -0.07.
With `CCTTGAAA` the E-score was -0.0618.
The E-score of `AGCGATAC` is reported as 0.019.
With `CGTCCGGC` the E-score was 0.367.
The E-score of `ATACGGTG` is reported as 0.179.
`AGTATGAC` has an E-score of -0.0635.
`CACTAGTC` has an E-score of -0.11.
For `ATGTGTCG`, the E-score was -0.138.
The E-score of `AAGTGATT` is reported as -0.138.
`CTAATCAG` gave an E-score of -0.109.
For `AGAGGTTG`, the E-score was -0.123.
With `GCGAGCCA` the E-score was -0.00666.
`CCCAGATC` gave an E-score of -0.0458.
The E-score of `ACGGCGGC` is reported as 0.463.
With `CGGTGACG` the E-score was 0.0717.
With `ATTTACGC` the E-score was 0.0995.
`ACGTAACT` gave an E-score of -0.00342.
With `AGCAGCGG` the E-score was 0.14.
With `AGCGCTGC` the E-score was 0.239.
With `CGTGCCAG` the E-score was -0.0687.

Block 2
Target: Sal-like protein 4, full length isoform A (SALL4, Homo sapiens, UniProt Q9UJQ4, residues 1-1053)
Sequence of UniProt Q9UJQ4 (whole entry, looked up): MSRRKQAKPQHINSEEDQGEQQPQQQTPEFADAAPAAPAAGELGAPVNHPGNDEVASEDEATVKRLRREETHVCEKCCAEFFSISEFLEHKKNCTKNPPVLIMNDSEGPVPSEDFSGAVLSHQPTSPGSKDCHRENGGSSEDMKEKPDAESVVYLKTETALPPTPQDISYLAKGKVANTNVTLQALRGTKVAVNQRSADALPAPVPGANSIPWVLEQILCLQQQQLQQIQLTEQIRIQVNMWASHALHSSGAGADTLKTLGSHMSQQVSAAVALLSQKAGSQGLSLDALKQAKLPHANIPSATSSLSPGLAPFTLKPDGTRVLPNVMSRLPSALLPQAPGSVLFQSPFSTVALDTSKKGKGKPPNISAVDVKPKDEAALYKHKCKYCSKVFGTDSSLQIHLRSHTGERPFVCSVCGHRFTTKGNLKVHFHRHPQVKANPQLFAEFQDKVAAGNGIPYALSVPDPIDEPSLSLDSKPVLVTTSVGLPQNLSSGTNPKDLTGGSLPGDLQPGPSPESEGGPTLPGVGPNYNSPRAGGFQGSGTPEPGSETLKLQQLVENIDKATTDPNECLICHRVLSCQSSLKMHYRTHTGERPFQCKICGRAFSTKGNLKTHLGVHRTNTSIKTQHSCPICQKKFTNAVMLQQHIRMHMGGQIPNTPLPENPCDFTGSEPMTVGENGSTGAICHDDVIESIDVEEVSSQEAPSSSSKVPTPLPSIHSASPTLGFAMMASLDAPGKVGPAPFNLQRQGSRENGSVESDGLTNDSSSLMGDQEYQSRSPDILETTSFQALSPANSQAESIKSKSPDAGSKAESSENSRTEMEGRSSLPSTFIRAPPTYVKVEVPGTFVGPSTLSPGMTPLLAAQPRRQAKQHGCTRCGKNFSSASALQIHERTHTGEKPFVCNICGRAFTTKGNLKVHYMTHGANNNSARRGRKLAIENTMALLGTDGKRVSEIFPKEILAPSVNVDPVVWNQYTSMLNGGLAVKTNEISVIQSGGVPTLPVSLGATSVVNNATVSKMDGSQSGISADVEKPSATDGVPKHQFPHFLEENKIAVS
Technique: universal PBM
Form: double-stranded DNA, one strand shown
Sample: in vitro
Tested at: 600 nM
Notes: 8-mer, flanks averaged, mean of replicates
Reading: higher = stronger binding
`AACTAAAA` gave an E-score of 0.226.
The E-score of `ATCGTTGG` is reported as 0.133.
The E-score of `CAGAGTCC` is reported as -0.00348.
For `ATCTGGTG`, the E-score was -0.0484.
The E-score of `AGAGCCCC` is reported as -0.354.
`AGTATCCC` gave an E-score of -0.202.
The E-score of `GGGTGTAC` is reported as -0.0928.
The E-score of `GTTGTTCA` is reported as 0.0535.
`ATATCTCG` gave an E-score of 0.272.
`GCAGTTAC` has an E-score of 0.0736.
The E-score of `GTCACTAA` is reported as 0.153.
For `CAGATGAG`, the E-score was -0.0222.
The E-score of `CTGTGCTC` is reported as 0.0024.
With `CCCAATCG` the E-score was -0.206.
The E-score of `CCGTCTGA` is reported as -0.228.
With `ACATTGCT` the E-score was 0.222.

Block 3
Target: CCNB2, cyclin fold, Cln2 fusion (human)
Technique: yeast growth competition, sequencing
Sample: yeast
Notes: weak parent motif
Reference: not given
Reading: higher = stronger binding
Starting sequence: CDC6 docking peptide (human); TLKGRRLVFDNQL; partner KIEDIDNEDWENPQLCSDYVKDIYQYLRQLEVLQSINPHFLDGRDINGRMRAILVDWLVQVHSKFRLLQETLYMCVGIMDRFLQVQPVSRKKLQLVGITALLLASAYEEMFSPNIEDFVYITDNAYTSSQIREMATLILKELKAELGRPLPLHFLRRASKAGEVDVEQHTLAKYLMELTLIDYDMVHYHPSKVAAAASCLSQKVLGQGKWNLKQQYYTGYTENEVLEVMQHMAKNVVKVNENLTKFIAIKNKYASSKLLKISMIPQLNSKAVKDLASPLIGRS
`T1H` — result for “normalised enrichment score”: 0.033.
For `L2I`, “normalised enrichment score” read -0.23.
For `R5V`, “normalised enrichment score” read 0.0262.
For `Q12A`, “normalised enrichment score” read 0.284.
`R6H`: “normalised enrichment score” 0.0773.
`V8F`: “normalised enrichment score” 0.261.
Under “normalised enrichment score”, `L2D` is recorded as -0.53.
Under “normalised enrichment score”, `L13F` is recorded as 0.213.
`R6Y` — result for “normalised enrichment score”: 0.235.
For `F9H`, “normalised enrichment score” read 0.372.
`L7M`: “normalised enrichment score” 0.251.
For `D10S`, “normalised enrichment score” read 0.449.
`T1V`: “normalised enrichment score” 0.0177.
Under “normalised enrichment score”, `T1M` is recorded as 0.123.
`V8H`: “normalised enrichment score” 0.0692.
Under “normalised enrichment score”, `L2G` is recorded as -0.0754.
`Q12P`: “normalised enrichment score” 0.146.
`V8A` — result for “normalised enrichment score”: 0.103.
Under “normalised enrichment score”, `L2H` is recorded as 0.0426.
`D10G` — result for “normalised enrichment score”: -0.603.
Under “normalised enrichment score”, `R6E` is recorded as -0.747.
For `F9Q`, “normalised enrichment score” read 0.505.
Under “normalised enrichment score”, `D10L` is recorded as 0.103.
Under “normalised enrichment score”, `R5E` is recorded as -0.657.
`R5A L7A` — result for “normalised enrichment score”: 0.096.

Block 4
Target: Interferon regulatory factor 3, full length, phosphomimetic (IRF3, Homo sapiens, UniProt Q14653, residues 1-427, S386D/S396D/S398D/S402D/T404D/S405D)
Sequence of UniProt Q14653 (whole entry, unmodified, looked up): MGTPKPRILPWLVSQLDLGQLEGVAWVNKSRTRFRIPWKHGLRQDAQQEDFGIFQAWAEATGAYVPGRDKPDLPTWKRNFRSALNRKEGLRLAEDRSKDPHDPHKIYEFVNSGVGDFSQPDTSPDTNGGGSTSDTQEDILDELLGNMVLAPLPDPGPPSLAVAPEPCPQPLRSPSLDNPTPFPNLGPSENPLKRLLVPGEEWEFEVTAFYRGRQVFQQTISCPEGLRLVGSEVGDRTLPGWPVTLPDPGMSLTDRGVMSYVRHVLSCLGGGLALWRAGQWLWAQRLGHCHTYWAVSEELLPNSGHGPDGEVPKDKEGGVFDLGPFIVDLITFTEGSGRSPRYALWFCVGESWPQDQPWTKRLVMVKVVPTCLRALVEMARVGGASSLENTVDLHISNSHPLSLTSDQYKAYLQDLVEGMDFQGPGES
Technique: protein-binding microarray
Form: double-stranded DNA, one strand shown
Sample: in vitro
Tested at: 2540 nM top
Notes: 60-bp whole probe
Added: salmon DNA 0.4 mg/ml
Reference: random background probes
Reading: higher = stronger binding
All sequences stand within: GCCTAGCAC … GTCTTGATTCGCTTGACGCTGCTG
`TTAGGTTTCGGGCTCGGTTAGTGCTAG`: “fitted relative affinity” 3.28 z-score.
Under “fitted relative affinity”, `ATAGGTTTCGGACTGGGTTAGTGCTAG` is recorded as 4.63 z-score.
Under “fitted relative affinity”, `TCATTTTTCTAAACCATACTGTGCTAG` is recorded as 2.25 z-score.
`TTGGGTCTCGGTCTCGGTTAGTGCTAG`: “fitted relative affinity” 0.419 z-score.
`AACGATATCAGACTGGAGACGTGCTAG` — result for “fitted relative affinity”: 0.206 z-score.
For `TCAATTTTTAGTTAGAAACTGTGCTAG`, “fitted relative affinity” read 0.309 z-score.
`TCAACTCTTTCTGTCAGACTGTGCTAG` — result for “fitted relative affinity”: 0.96 z-score.
For `TCACTTGTGTTTATTGTACTGTGCTAG`, “fitted relative affinity” read 0.0593 z-score.
`TTAGGTTCGCTTTTCCTTTAGTGCTAG` — result for “fitted relative affinity”: 3.69 z-score.
`TCCAACCTGCTGAATCAAAAGTGCTAG`: “fitted relative affinity” 0.6 z-score.
For `TTAGGACTGGGGTTTCGCTTAGTGCTA`, “fitted relative affinity” read 0.654 z-score.
Under “fitted relative affinity”, `GACGGTCTCCTTCACCTGACGTGCTAG` is recorded as 0.825 z-score.
`TTAGGACTGGGGTAACGGTTAGTGCTA` — result for “fitted relative affinity”: -0.895 z-score.
Under “fitted relative affinity”, `GTAGATTTCAGTCTCGATTAGTGCTAG` is recorded as 2.41 z-score.
Under “fitted relative affinity”, `TCAGCCATATTTATCTGACTGTGCTAG` is recorded as 0.0445 z-score.
`GACGGACTGGGTTTTGGGACGTGCTAG`: “fitted relative affinity” -0.508 z-score.
Under “fitted relative affinity”, `TTACATTTCAGTTCCGATTAGTGCTAG` is recorded as 3.25 z-score.
For `GACGGTTTCCTTCCCCTGACGTGCTAG`, “fitted relative affinity” read 5.99 z-score.
Under “fitted relative affinity”, `TTAGAAATGAGTCTCGATTAGTGCTAG` is recorded as -0.201 z-score.

Block 5
Target: ABI1, truncated, D143A, DHFR fusion (Arabidopsis thaliana)
Technique: DHFR PCA, deep sequencing
Sample: yeast
Notes: methotrexate growth selection, single substitutions
Added: (+)-ABA 0 µM
Reference: wild-type fitted maximum
Reading: higher = stronger binding
Starting sequence: PYL1, truncated, DHFR fusion (Arabidopsis thaliana); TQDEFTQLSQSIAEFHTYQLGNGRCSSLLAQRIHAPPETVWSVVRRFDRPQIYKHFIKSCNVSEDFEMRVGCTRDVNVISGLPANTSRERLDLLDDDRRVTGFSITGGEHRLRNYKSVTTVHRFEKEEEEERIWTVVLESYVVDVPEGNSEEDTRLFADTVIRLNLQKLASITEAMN
Under “relative binding score”, `Q10C` is recorded as 4.01%.
For `E38S`, “relative binding score” read 4.48%.
`D97R` — result for “relative binding score”: 13.7%.
`E127C` — result for “relative binding score”: 27.2%.
`R98T` — result for “relative binding score”: -7.56%.
Under “relative binding score”, `F47M` is recorded as -7.76%.
`I33G` — result for “relative binding score”: -2.06%.
`F15P`: “relative binding score” 4.32%.
For `P36M`, “relative binding score” read 3.03%.
`E174D`: “relative binding score” -0.558%.
For `R88N`, “relative binding score” read 11.2%.
For `S104R`, “relative binding score” read 0.582%.
Under “relative binding score”, `R123K` is recorded as 54.7%.
`V40F`: “relative binding score” -7.21%.
Under “relative binding score”, `M68I` is recorded as 30.7%.
`D95G` — result for “relative binding score”: -8%.
Under “relative binding score”, `D48C` is recorded as -4%.
`D3Y`: “relative binding score” 41.4%.
For `V44W`, “relative binding score” read 2.76%.
Under “relative binding score”, `R46P` is recorded as 2.61%.
For `L156K`, “relative binding score” read -5.09%.
`A13I` — result for “relative binding score”: 8.59%.
For `S63A`, “relative binding score” read 46.1%.
`C72E` — result for “relative binding score”: 12.2%.
Under “relative binding score”, `E4Y` is recorded as 18.3%.

Some of these lines once more (block 3):
`R6H`: “normalised enrichment score” 0.0773.
`R6Y` — result for “normalised enrichment score”: 0.235.
Under “normalised enrichment score”, `T1M` is recorded as 0.123.
For `F9Q`, “normalised enrichment score” read 0.505.
Under “normalised enrichment score”, `L2H` is recorded as 0.0426.
Under “normalised enrichment score”, `R5E` is recorded as -0.657.
For `L2I`, “normalised enrichment score” read -0.23.
`D10G` — result for “normalised enrichment score”: -0.603.
`R5A L7A` — result for “normalised enrichment score”: 0.096.
